Results from different studies.
Several values in a cell are separate wells, animals, samples, runs or records. ± marks the error that the study gave.

Compound	assay	system	setting	scale	quantity	value
N#Cc1ccc2c(c1)[C@H]1CCCN(C(=O)c3ccc4[nH]cnc4c3)[C@H]1C2	–	human	360 mg, day 7	baseline: baseline	cortisol level change	-105 nmol/L
CCN1/C(=C/C(C)=O)Sc2ccc(F)cc21	–	cynomolgus monkey	oral, 30 mg/kg, 2 h post-dose	–	QT interval	242 ± 27 ms
O=C(O)CCC(=O)O.[2H]C([2H])([2H])Oc1cc(C)c2[nH]ccc2c1CN1CC[C@@H](C2CC2)C[C@H]1c1ccc(C(=O)O)cc1	multiple ascending dose	healthy Chinese subjects	125 mg twice daily	–	subjects with TEAE Eczema	0%
Cn1cc([C@@H]2COC[C@]3(CC[C@H](c4ccccc4)CC3)N2)cn1	shake-flask, LC-HRMS	aqueous buffer	16 h, pH 6.8	–	solubility	> 750 µM
N[C@@H](C[18F])C(=O)O	PET imaging	female athymic nude mice, U-87 MG xenograft, tumor	intravenous, 60 min	–	tracer uptake	1.03 ± 0.16 %ID/cc
Cc1c(C(=O)O)ccc2c3n(nc12)[C@@H]1[C@H](C3)N(CC2CC2)[C@@]2(C(=O)Nc3cc(Cl)ccc32)[C@H]1c1cccc(Cl)c1F	phase Ia trial, refers to: Nausea	cancer patients	oral, dose not given	–	adverse event incidence	92%
O=C1CC[C@H](N2Cc3cc(N4CCN(CC5CCN(c6ccc([C@@H]7c8ccc(O)cc8CC[C@@H]7c7ccccc7)cc6)CC5)CC4)ccc3C2=O)C(=O)N1	–	Sprague-Dawley rat, faeces	oral, 20 mg/kg	–	parent drug share of faecal radioactivity	60%
O=C1NCCc2nc(OCc3cccc(F)c3)ccc21	refers to: Catalepsy	Sprague-Dawley rat, male	oral, 100 mg/kg, 1 h, score 0 none to 2 full	direction not given	Irwin test score	0
COc1ccc([C@@H](O)c2cc(-c3ncnc4cc(N5CCOCC5)ccc34)c(F)cc2Cl)nn1	–	locally advanced rectal cancer	all dose levels overall, together with: capecitabine and radiotherapy	–	TEAE, decreased appetite	32%
Cc1ccc(Sc2ccccc2N2CCNCC2)c(C)c1	refers to: any TEAE	healthy adult women	oral, 10 mg daily, 12 days	–	participants with TEAE	66.7%
CN[C@@H](C)C(=O)N[C@H]1CN(C(=O)CC(C)C)CC[C@H]2CC[C@@H](C(=O)NC(c3ccccc3)c3ccccc3)N2C1=O	compartmental	SCID mice, MDA-MB-231 xenograft, plasma	oral, 100 mg/kg	–	systemic clearance	53.9 mL/h
COc1cc2nccc(Oc3ccc(NC(=O)c4cc5c(n(-c6ccccc6)c4=O)CCCC5=O)nc3)c2cc1OC	–	patients with relapsed/refractory AML	oral, 6 mg once daily	–	drug-related TEAEs leading to interruption	0%
CCCc1ccc(-c2ccc(-c3cc(F)c(F)c(F)c3)c(F)c2)cc1	–	rat, placenta	1000 ng/mL in perfusate, middle dose, mixture of 21 LCMs	–	placental accumulation	8.99 ± 10.4 ng/g
Cn1cc([C@H]2C[C@H]3CSC(N)=N[C@@]3(c3ccc(F)cc3F)CO2)cn1	–	male 129/SVE mouse, plasma	subcutaneous, 3 mg/kg, 6 h	–	plasma concentration	11 nM
CCOc1c([C@H](C)n2nc(C)c3c(N)ncnc32)cc(Cl)c(F)c1[C@@H]1CNC(=O)C1	refers to: QTcF above 500 ms	previously treated B-cell malignancy	oral, 30 mg once daily, baseline QTcF ≤450 ms	–	patients	0%
Cc1cc(C)c(CNC(=O)c2cc(Cl)c3c(c2C)O[C@@](C)([C@H]2CC[C@H](N(C)C)CC2)O3)c(=O)[nH]1	–	human male, urine and feces	oral, 200 mg	baseline: dose	excretion as parent	74.9%
CCO[C@H]1CCN(Cc2c(OC)cc(C)c3[nH]ccc23)[C@H](c2ccc(C(=O)O)cc2)C1	–	healthy volunteers, plasma	oral, 200 mg single dose, mean	–	total Cmax	3580 ng/mL
O=C(Nc1cnccc1Cl)N1CCN(Cc2ccc3c(c2)OC(F)(F)O3)CC1	refers to: Fatigue	human healthy young men	75 mg, multiple dose	–	adverse event incidence	50%
Nc1ncn([C@H]2C[C@H](O)[C@@H](CO)O2)c(=O)n1	–	processed mouse plasma	80 ng/mL, 24 h, 4 °C, re-injection stability	–	mean deviation from nominal	5.48%
Cn1cnc2ccc(Nc3c(F)ccc(NS(=O)(=O)N4CC(F)C4)c3Cl)c(Cl)c2c1=O	refers to: fatigue any grade	human patients	dose not given, monotherapy trial	baseline: patients	patients with fatigue	8%
[18F]c1ccc(-c2ccc3c(c2)[nH]c2ccncc23)cn1	ex vivo biodistribution	APP/PS1 mouse, AD model, feces	intravenous, 30 min	–	SUV	0.471 ± 0.105
Cl.[2H]C([2H])([2H])CC(=O)c1cnc(NC(=O)C2CC2)cc1Nc1cccc(-c2ncn(C([2H])([2H])[2H])n2)c1OC	geometric mean	human	oral, 40 mg twice daily, day 7, fed, liquid, multiple dose	–	Vz/F	132 L

Compound	assay	system	setting	scale	quantity	value
CCOC(=O)N1C[C@@H](c2ccc(Cl)cc2)N[C@@H](c2ccc(C(C)(C)C)cc2)C1	shake-flask, LC-HRMS	aqueous buffer	16 h, pH 6.8	–	solubility	< 4 µM
CCc1c(-c2ccccc2)c(-c2ccccc2)nn1-c1ccccc1-c1cccc(OCC(=O)O)c1	–	Sprague-Dawley rat	oral	–	MRT(0-inf) observed	2.76 h and 3.01 h and 2.99 h
C=CCN1CC(=O)N2[C@@H](Cc3ccc(O)cc3F)C(=O)N(Cc3cccc(N4CC(N5CCN(CC)CC5)C4)n3)C[C@@H]2N1C(=O)NCc1ccccc1	refers to: Diarrhea	advanced solid tumour patients	all doses, expansion part, grade ≥3	–	treatment-related adverse events	0%
O=C(Nc1ccc(OC(F)(F)Cl)cc1)c1cnc(N2CC[C@@H](O)C2)c(-c2ccn[nH]2)c1	refers to: Bilirubin increase, grade ≥2	human patients, dose-finding study	oral, sample F of sample B patients	–	patients with event	5.6%
COc1ccc2c(c1)CN(C(=O)CCN1CCC(Cc3ccccc3)CC1)CC[S@@+]2[O-]	telemetry	conscious male beagle dogs	intravenous, 2 mg/kg, 24 h	–	QRS duration	34 ± 10 ms
Cc1cc(/C=C/C#N)cc(C)c1Nc1ccnc(Nc2ccc(C#N)cc2)n1	–	buffer	24 h, pH 4.5, 37 °C, below quantification limit 50 ng/mL	–	equilibrium solubility	not detected
CCc1cc(C(=O)NC)c2nccc(N3CCc4c(cc(Cn5ccnc5)cc4-c4cn(C)nc4C(F)(F)F)C3=O)c2c1	–	Sprague Dawley rats	oral, 100 mg/kg once daily, 7 days	–	serum CK activity	98.5 ± 10.7 U/L
CCCC1CCC(c2ccc(-c3ccc(CC)cc3)cc2)CC1 (centres unmarked)	–	rat, placenta	5000 ng/mL in perfusate, high dose, mixture of 21 LCMs	–	placental accumulation	375 ± 426 ng/g
CN1CCC[C@H](CN2c3ccccc3Sc3ccccc32)C1.Cl	–	ICR mouse female fasted, plasma	oral, 16 mg/kg	–	AUC(0-t)	1340 ng·h/mL
CCN1CCN(Cc2ccc(NC(=O)c3ccc(C)c(NC(=O)c4cncc(-c5cccs5)c4)c3)cc2C(F)(F)F)CC1	–	C57BL/6 mice, epithelial lining fluid	intraperitoneal, 15 mg/kg	–	apparent volume of distribution	7.8 L/kg
Cn1cc(Nc2nccc(-c3ccc4c(c3)CN(C3COC3)CC[C@H]4NC(=O)c3cn(C(C)(C)C)nn3)n2)cn1	refers to: B cells, memory, non-class-switched	human, clinical trial, whole blood	50 mg twice daily, follow-up	–	percent change from baseline	-3.88%
Cn1ncnc1[C@H]1c2n[nH]c(=O)c3cc(F)cc(c23)N[C@@H]1c1ccc(F)cc1	–	human patients, plasma	oral, 600 µg/m2/day, day 5	–	AUCτ	200 ± 101 ng·h/mL
O=c1[nH]c(=O)n([C@@H]2O[C@H](CO)[C@@H](O)[C@@H]2F)cc1CCC[18F]	–	nude mice, RG2 tumour, lung	intravenous, dose not given, 2 h	–	biodistribution	0.14 ± 0.08 %ID/g
OC[C@H]1O[C@@H](c2ccc(F)c(Cc3cc4ccccc4s3)c2)[C@H](O)[C@@H](O)[C@@H]1O	–	Japanese patients, type 1 diabetes	oral, 25 mg/day, onset day 7	baseline: patients	hypoglycaemia-related adverse event	3%
NC1(C(=O)N[C@@H](CCO)c2ccc(Cl)cc2)CCN(c2nc[nH]c3nccc2-3)CC1	–	metastatic CRPC patients	400 mg b.i.d., grade 3 to 4, treatment-related, together with: enzalutamide 160 mg daily	–	incidence of blood creatinine increased	0%
CN(CCCN1CCN(C(=O)CN2CCN(CC(=O)[O-])CCN(CC(=O)[O-])CCN(CC(=O)[O-])CC2)CC1)c1ccc2nccc(C(=O)NCC(=O)N3CC(F)(F)C[C@H]3C#N)c2c1.[68Ga+3]	–	mice, HT-1080.hFAP and HT-1080 wild-type xenografts, lung	iv, 500 pmol, 4 h post injection	–	uptake	0.2 ± 0.1 %IA/g
CCCCOc1nc(N)c2c(n1)N(Cc1cccc(CN3CCCC3)c1)CC(=O)N2	–	human	oral, 2 mg, drug interaction trial	–	any TEAE	13.3%
O=C(Nc1nc2cccc(-c3ccc(CN4CCS(=O)(=O)CC4)cc3)n2n1)C1CC1	refers to: metabolism and nutrition disorders	human rheumatoid arthritis patients	oral, 200 mg once daily, 4 weeks, regardless of relatedness	–	treatment-emergent adverse events	0%
CCC(CC)[C@H]1COC[C@@H](c2cccc(Br)c2)N1	shake-flask, LC-HRMS	aqueous buffer	16 h, pH 6.8	–	solubility	< 4 µM
CC(C)(C(=O)N1CCOc2c(C#N)cncc2C1)C(F)F	–	human, both sexes	oral, 40 mg single dose	–	subjects with myalgia TEAE	16.7%
Cc1ccc([C@@H]2O[C@H](CO)[C@@H](O)[C@H](O)[C@H]2O)cc1Cc1ccc(-c2ccc(F)cc2)s1	–	Japanese type 2 diabetes patients	200 mg, day 4, 24 h urine collection	baseline: baseline	urinary sodium excretion change	-0.29 mEq
Cn1cc(Nc2nc(N)nc(-c3cccc(-n4ccc5cc(C6CC6)cc(F)c5c4=O)c3CO)n2)cn1	–	healthy humans, fed	oral tablet, 150 mg twice daily (multiple dose), 14 (unit not given)	baseline: subjects	vomiting incidence	0%

Excerpt of the above:
Compound	assay	system	setting	scale	quantity	value
Cn1ncnc1[C@H]1c2n[nH]c(=O)c3cc(F)cc(c23)N[C@@H]1c1ccc(F)cc1	–	human patients, plasma	oral, 600 µg/m2/day, day 5	–	AUCτ	200 ± 101 ng·h/mL
O=c1[nH]c(=O)n([C@@H]2O[C@H](CO)[C@@H](O)[C@@H]2F)cc1CCC[18F]	–	nude mice, RG2 tumour, lung	intravenous, dose not given, 2 h	–	biodistribution	0.14 ± 0.08 %ID/g
OC[C@H]1O[C@@H](c2ccc(F)c(Cc3cc4ccccc4s3)c2)[C@H](O)[C@@H](O)[C@@H]1O	–	Japanese patients, type 1 diabetes	oral, 25 mg/day, onset day 7	baseline: patients	hypoglycaemia-related adverse event	3%
NC1(C(=O)N[C@@H](CCO)c2ccc(Cl)cc2)CCN(c2nc[nH]c3nccc2-3)CC1	–	metastatic CRPC patients	400 mg b.i.d., grade 3 to 4, treatment-related, together with: enzalutamide 160 mg daily	–	incidence of blood creatinine increased	0%
